Measured values of several laboratories.
Each numbered part is a random draw from the data of one study; scales do not carry over between parts. Values joined by “and” are separate records of one study, mostly repeats; a detail may differ.
UniProt P27361, sequence (whole entry, looked up): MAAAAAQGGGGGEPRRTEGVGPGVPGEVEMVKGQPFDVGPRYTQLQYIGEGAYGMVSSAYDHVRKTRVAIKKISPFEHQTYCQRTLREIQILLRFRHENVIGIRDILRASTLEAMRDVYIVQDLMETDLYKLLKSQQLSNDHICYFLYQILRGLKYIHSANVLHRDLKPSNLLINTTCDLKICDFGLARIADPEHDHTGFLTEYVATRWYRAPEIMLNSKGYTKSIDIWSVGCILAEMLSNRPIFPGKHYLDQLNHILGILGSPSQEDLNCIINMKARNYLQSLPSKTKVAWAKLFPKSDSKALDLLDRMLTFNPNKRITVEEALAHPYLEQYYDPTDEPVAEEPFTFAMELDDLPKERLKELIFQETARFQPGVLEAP
UniProt Q99683, sequence (whole entry, looked up): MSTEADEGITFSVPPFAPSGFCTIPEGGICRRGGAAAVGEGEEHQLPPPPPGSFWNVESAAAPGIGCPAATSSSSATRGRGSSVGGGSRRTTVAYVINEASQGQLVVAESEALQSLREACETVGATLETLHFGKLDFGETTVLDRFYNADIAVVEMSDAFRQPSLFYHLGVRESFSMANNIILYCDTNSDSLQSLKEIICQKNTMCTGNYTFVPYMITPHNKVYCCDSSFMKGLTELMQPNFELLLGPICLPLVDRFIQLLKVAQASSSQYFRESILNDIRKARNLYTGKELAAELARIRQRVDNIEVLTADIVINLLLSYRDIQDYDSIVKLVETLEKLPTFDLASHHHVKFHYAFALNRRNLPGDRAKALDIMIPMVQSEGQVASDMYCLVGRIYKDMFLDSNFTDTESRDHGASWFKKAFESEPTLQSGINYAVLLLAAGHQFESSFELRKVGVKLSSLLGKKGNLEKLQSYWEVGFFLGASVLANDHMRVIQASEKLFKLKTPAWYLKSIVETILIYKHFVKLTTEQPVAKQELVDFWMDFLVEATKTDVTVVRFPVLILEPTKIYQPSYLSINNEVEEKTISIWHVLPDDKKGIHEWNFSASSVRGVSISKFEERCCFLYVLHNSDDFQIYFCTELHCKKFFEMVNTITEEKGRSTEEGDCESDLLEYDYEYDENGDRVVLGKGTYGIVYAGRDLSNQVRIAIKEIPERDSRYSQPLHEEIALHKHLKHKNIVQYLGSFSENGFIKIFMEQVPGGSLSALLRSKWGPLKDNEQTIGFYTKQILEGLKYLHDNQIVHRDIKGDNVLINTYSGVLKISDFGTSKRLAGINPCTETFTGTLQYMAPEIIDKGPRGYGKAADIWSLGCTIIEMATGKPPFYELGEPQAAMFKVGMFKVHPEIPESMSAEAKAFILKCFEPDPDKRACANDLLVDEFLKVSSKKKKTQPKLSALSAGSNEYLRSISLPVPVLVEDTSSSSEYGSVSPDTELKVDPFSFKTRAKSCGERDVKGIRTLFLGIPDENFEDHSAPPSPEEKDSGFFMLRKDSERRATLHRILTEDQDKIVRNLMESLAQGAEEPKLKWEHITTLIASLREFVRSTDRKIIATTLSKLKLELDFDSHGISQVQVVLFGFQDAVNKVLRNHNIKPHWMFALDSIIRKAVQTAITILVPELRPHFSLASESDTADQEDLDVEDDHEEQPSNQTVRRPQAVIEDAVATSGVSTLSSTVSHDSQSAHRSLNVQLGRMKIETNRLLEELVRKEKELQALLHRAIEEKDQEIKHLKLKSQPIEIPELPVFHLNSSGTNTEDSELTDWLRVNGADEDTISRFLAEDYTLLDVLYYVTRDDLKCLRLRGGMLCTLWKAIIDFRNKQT
UniProt Q12866, sequence (whole entry, looked up): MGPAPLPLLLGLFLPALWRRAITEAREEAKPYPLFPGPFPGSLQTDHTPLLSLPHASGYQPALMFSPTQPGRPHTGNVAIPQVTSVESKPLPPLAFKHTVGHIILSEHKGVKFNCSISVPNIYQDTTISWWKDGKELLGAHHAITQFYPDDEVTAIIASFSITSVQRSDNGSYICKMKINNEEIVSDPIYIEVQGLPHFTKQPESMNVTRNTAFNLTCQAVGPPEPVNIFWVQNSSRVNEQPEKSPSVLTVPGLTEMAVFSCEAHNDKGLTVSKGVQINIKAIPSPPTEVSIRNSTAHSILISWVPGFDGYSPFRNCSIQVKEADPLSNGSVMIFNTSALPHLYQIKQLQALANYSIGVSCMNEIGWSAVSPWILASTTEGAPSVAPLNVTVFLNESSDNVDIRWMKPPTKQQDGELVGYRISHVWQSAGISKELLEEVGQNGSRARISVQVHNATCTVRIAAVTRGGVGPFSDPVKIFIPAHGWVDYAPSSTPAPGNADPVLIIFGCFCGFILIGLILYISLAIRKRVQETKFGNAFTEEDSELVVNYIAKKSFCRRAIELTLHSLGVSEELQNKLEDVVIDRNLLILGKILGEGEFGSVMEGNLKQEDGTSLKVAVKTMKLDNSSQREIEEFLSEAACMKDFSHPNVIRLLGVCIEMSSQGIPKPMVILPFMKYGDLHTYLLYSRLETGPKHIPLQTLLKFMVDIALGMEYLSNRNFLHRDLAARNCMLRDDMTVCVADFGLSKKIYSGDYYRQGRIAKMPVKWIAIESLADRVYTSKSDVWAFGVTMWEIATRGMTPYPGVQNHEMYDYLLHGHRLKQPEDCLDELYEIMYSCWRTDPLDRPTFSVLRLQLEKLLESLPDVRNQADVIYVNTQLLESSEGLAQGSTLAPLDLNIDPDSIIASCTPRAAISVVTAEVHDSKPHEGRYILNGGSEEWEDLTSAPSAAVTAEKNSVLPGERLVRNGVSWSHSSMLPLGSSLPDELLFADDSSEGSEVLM
UniProt P42336, sequence (whole entry, unmodified, looked up): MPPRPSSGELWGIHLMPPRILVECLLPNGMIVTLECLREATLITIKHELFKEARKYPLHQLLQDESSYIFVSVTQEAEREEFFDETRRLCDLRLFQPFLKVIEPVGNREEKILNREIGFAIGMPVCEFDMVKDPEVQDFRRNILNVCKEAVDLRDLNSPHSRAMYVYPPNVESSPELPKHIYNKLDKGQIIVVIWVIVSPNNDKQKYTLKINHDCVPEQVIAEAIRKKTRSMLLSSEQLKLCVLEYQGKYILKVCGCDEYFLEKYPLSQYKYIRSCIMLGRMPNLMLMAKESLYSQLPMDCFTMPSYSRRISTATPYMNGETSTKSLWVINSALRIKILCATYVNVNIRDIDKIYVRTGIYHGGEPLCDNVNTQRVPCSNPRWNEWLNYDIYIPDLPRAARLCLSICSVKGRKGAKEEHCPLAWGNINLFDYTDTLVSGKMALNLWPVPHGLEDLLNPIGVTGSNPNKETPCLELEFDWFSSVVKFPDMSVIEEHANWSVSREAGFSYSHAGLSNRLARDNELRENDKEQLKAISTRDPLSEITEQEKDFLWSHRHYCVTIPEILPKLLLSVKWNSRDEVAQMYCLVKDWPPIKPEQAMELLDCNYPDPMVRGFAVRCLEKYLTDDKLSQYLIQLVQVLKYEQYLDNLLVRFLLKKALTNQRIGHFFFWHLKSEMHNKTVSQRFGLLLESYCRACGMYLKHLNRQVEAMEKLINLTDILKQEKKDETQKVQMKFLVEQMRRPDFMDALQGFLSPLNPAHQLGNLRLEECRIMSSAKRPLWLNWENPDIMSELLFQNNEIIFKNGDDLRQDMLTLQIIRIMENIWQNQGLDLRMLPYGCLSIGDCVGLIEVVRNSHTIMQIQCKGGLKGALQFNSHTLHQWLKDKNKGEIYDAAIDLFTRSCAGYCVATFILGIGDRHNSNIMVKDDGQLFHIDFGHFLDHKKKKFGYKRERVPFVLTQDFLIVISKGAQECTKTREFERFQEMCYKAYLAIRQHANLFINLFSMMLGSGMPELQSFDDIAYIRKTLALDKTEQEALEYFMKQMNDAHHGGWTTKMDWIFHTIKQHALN
UniProt Q8IVH8, sequence (whole entry, looked up): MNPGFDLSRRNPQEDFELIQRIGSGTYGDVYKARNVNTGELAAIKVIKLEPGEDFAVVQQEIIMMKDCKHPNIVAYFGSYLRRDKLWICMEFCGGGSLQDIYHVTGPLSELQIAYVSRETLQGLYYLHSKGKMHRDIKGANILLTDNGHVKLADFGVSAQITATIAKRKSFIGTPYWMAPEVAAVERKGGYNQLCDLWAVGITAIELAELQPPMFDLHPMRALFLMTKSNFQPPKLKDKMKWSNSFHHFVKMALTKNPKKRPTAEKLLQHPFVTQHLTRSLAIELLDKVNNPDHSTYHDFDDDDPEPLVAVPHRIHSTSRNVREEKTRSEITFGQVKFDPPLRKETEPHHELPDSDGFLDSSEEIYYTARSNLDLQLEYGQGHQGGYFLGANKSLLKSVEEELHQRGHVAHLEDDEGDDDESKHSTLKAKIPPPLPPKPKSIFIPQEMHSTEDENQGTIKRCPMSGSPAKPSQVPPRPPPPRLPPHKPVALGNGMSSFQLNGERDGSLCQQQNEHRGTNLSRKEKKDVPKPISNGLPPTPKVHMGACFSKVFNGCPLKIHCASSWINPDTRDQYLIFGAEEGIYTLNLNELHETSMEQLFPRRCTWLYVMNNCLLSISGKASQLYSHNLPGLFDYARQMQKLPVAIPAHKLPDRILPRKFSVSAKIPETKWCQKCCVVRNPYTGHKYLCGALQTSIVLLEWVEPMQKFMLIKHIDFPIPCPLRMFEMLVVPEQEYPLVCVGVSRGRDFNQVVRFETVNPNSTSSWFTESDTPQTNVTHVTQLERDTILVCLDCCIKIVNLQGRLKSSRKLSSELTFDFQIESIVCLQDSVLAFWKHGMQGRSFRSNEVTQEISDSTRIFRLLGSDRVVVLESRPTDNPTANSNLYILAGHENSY
UniProt Q00535, sequence (whole entry, looked up): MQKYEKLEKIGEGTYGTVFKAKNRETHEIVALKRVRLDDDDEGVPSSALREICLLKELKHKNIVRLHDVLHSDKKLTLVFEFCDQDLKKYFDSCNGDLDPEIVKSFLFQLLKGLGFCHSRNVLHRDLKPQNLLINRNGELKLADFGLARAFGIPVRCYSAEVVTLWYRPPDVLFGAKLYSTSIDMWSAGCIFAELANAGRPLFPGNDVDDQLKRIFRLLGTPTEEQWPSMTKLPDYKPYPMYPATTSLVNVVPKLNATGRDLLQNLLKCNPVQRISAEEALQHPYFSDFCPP

Study 1
Cell line: mouse MPNST tumor cells
Technique: high-content immunofluorescence imaging
Refers to: nuclear SOX9
Concentration: 10 µM
Time: 12 h
Setting: mean of 2 replicates
Reference: DMSO control
Direction: higher = more nuclear SOX9
Endpoint: nuclear SOX9 intensity
CCN(CC)CCOC(=O)C1(C2CCCCC2)CCCCC1: 141 % of DMSO
O=C(NCCCCN1CCN(c2cccc(Cl)c2Cl)CC1)c1ccc2c(c1)Cc1ccccc1-2: 168 % of DMSO
C[C@H]1COc2c(N3CCN(C)CC3)c(F)cc3c(=O)c(C(=O)O)cn1c23: 93 % of DMSO
CC[N+](C)(C)c1cccc(O)c1: 94.9 % of DMSO

Study 2
SMILES: c1ccc(Oc2ccc(Nc3c4c(nc5ccccc35)CCC4)cc2)cc1
Organism: Leishmania donovani
Strain: DD8
Matrix: promastigotes
Endpoint: inhibition
parasite viability, resazurin; 0.0033 µM: -1% and -2%
parasite killing; 3.33 µM, 48 h: 91% and 89% and 96%
parasite viability, resazurin; 16.66 µM: 100%
parasite killing; 66.66 µM, 24 h: 100% and 99%

Study 3
Species: human
Matrix: microsomes or S9
Concentration: 2 µM
Time: 0.5 h
Endpoint: remaining compound
Cc1ccc(NC(=O)C(C)C(=O)Nc2ccc(C)cc2)cc1: 11.6%
COn1c(Br)c(Br)c(Br)c1C(=O)Nc1ccc(Br)cc1: 23.8%
Cc1ccc(S(=O)(=O)NC2c3cccc4cccc(c34)C2Sc2n[nH]c(N)n2)cc1 (stereo not shown): 21.4%
O=C(c1nc2ncccn2n1)N1CCCn2cc(-c3ccccc3)nc21: 89.7%
COc1ccc(/N=c2\[nH]nc3nc(C)cc(C)n23)cc1: 51.5%
NC(=O)c1ccccc1NC(=O)Cc1ccccc1C(=O)O: 86.5%

Study 4
Compound: COc1ccc2[nH]c3c4[nH]c5ccc(OC)cc5c4c4c(c3c2c1)C(=O)NC4=O
Observed: binding
Concentration: 1 µM
Endpoint: remaining binding
DAPK3 (Homo sapiens, UniProt O43293): 4.8%
COQ8A (Homo sapiens, UniProt Q8NI60); competition with immobilised ligand: 100%
LCK (Homo sapiens, UniProt P06239); competition with immobilised ligand: 85%

Study 5
Compound: CS(=O)(=O)NCC[C@H](NC(=O)c1cncc2c1cnn2-c1ccc(F)cc1)c1ccnc(S(C)(=O)=O)c1
Technique: competition with immobilised ligand
Concentration: 1 µM
Endpoint: remaining binding
PIP5K1A (Homo sapiens, UniProt Q99755); cell-free assay: 100%
MAK (Homo sapiens, UniProt P20794); binding: 100%
MAP4K3 (Homo sapiens, UniProt Q8IVH8); cell-free assay: 90%
ALK (Homo sapiens, UniProt Q9UM73); cell-free assay: 100%
MERTK (Homo sapiens, UniProt Q12866); cell-free assay: 100%
STK35 (Homo sapiens, UniProt Q8TDR2); cell-free assay: 100%
PTK2 (Homo sapiens, UniProt Q05397); cell-free assay: 93%
MAP4K1 (Homo sapiens, UniProt Q92918); cell-free assay: 95%
FLT3 (Homo sapiens, UniProt P36888, N841I); cell-free assay: 91%
CDK5 (Homo sapiens, UniProt Q00535); cell-free assay: 100%
MAP3K7 (Homo sapiens, UniProt O43318); cell-free assay: 100%
Tyrosine-protein kinase ABL1, non-phosphorylated (ABL1, Homo sapiens, UniProt P00519, T315I); cell-free assay: 93%
PIK3CA (Homo sapiens, UniProt P42336, H1047L); cell-free assay: 77%
MAP3K5 (Homo sapiens, UniProt Q99683); cell-free assay: 96%
LRRK2 (Homo sapiens, UniProt Q5S007, G2019S); cell-free assay: 92%
MAPK3 (Homo sapiens, UniProt P27361); cell-free assay: 97%
STK38L (Homo sapiens, UniProt Q9Y2H1); binding: 50%

A few entries again (study 4):
LCK (Homo sapiens, UniProt P06239); competition with immobilised ligand: 85%
DAPK3 (Homo sapiens, UniProt O43293): 4.8%
